Measurements pooled from the literature.
Numbered parts are unrelated; each lists some results of a single study.
UniProt P42680, sequence (whole entry, looked up): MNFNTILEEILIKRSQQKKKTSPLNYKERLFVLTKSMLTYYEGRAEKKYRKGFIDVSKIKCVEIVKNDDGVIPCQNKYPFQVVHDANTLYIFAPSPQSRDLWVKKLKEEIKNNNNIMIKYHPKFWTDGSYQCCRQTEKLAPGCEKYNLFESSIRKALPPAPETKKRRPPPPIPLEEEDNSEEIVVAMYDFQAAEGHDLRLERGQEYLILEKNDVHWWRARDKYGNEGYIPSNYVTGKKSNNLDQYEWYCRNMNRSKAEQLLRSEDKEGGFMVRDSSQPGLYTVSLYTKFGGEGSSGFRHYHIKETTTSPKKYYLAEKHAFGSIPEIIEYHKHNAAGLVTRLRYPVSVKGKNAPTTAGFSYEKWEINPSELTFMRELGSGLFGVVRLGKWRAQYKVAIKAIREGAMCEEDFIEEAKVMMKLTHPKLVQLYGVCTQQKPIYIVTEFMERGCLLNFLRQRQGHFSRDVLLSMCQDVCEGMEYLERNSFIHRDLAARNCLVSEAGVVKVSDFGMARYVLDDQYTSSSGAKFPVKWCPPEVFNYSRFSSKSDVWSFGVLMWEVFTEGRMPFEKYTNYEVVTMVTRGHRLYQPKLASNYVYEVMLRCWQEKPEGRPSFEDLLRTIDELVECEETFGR
UniProt P00519, sequence (whole entry, unmodified, looked up): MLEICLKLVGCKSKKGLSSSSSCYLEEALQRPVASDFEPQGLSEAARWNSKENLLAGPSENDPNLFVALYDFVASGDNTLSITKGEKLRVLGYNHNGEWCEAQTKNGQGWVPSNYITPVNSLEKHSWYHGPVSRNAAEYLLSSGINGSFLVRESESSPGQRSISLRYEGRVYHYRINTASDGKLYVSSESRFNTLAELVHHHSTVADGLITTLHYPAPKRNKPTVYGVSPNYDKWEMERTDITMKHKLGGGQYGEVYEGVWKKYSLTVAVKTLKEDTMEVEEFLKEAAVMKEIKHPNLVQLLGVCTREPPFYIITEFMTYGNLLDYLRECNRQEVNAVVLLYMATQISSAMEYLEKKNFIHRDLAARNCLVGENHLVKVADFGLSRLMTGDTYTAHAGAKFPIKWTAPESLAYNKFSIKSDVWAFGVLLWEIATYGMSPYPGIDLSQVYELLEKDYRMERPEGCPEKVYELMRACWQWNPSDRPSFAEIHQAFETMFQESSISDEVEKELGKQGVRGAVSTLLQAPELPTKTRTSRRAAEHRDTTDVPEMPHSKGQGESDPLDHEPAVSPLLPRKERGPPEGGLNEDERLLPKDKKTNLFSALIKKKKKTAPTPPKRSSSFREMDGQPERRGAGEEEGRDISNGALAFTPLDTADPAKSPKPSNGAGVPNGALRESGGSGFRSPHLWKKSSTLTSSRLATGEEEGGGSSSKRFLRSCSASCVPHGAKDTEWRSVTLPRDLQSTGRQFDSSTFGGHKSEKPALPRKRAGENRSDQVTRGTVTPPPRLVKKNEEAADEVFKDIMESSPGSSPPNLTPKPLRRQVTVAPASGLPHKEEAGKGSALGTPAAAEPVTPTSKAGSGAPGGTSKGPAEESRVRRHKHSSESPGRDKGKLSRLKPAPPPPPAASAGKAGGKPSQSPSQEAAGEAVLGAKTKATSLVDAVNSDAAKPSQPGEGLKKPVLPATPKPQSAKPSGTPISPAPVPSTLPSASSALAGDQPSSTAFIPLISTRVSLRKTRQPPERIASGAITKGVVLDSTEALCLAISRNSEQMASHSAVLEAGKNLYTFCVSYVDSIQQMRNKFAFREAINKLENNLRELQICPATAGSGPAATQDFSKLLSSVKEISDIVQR
UniProt Q9HBY8, sequence (whole entry, looked up): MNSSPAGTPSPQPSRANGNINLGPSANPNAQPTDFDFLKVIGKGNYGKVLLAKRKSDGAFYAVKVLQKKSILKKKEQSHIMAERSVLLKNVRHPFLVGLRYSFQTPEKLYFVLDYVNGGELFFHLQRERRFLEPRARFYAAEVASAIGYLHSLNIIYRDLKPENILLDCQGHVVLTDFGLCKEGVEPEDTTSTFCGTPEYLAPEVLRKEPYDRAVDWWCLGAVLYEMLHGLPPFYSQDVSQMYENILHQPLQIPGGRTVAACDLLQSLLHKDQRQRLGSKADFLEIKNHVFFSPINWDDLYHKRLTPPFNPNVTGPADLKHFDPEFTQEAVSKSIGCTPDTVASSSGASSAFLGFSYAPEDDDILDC
UniProt Q8N5S9, sequence (whole entry, looked up): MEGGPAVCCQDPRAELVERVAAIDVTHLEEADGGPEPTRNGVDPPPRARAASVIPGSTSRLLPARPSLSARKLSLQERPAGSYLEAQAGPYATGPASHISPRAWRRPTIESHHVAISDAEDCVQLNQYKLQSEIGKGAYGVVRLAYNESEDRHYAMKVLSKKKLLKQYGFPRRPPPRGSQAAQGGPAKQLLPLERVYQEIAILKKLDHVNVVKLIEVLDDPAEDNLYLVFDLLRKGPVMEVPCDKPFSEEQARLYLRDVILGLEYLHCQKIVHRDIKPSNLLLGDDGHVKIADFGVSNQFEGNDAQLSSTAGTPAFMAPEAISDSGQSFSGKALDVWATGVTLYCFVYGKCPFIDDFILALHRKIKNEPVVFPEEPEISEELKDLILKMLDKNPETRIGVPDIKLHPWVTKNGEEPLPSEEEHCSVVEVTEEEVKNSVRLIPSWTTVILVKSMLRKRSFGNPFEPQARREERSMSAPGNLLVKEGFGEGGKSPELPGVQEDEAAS
UniProt P17948, sequence (whole entry, looked up): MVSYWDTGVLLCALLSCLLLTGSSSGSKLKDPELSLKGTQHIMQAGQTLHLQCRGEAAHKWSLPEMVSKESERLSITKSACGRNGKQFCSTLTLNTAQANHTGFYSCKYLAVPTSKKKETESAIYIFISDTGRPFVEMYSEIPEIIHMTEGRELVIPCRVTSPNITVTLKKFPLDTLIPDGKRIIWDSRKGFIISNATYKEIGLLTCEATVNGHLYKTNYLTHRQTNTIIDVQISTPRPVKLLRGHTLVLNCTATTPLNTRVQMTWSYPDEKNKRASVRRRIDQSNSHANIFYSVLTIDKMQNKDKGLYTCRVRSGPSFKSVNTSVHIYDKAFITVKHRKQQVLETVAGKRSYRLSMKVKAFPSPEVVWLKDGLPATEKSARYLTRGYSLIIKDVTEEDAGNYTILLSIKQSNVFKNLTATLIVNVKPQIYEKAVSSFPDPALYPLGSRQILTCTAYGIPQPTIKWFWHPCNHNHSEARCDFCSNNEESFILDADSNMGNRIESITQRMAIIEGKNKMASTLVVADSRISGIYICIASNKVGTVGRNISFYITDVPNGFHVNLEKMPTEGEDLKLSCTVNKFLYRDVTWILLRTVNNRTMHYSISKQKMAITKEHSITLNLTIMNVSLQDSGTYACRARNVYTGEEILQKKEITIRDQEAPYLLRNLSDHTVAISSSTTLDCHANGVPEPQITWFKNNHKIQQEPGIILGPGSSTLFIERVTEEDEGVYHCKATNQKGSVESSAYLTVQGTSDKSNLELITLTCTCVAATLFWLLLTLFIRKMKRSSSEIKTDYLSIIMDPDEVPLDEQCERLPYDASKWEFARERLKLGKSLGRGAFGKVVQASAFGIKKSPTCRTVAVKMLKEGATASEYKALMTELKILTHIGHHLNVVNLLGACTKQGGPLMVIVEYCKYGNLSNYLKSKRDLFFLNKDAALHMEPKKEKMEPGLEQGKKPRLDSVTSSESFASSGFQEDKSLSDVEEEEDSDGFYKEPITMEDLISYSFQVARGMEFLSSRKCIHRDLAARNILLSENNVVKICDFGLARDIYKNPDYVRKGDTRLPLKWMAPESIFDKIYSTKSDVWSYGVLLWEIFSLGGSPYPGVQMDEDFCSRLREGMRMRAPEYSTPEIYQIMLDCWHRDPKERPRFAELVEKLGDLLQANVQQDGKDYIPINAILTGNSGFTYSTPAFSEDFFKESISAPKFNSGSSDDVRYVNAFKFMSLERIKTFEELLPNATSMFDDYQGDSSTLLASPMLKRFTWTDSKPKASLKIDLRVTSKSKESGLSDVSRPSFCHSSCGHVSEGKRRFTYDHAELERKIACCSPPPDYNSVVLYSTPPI
UniProt Q9NYL2, sequence (whole entry, looked up): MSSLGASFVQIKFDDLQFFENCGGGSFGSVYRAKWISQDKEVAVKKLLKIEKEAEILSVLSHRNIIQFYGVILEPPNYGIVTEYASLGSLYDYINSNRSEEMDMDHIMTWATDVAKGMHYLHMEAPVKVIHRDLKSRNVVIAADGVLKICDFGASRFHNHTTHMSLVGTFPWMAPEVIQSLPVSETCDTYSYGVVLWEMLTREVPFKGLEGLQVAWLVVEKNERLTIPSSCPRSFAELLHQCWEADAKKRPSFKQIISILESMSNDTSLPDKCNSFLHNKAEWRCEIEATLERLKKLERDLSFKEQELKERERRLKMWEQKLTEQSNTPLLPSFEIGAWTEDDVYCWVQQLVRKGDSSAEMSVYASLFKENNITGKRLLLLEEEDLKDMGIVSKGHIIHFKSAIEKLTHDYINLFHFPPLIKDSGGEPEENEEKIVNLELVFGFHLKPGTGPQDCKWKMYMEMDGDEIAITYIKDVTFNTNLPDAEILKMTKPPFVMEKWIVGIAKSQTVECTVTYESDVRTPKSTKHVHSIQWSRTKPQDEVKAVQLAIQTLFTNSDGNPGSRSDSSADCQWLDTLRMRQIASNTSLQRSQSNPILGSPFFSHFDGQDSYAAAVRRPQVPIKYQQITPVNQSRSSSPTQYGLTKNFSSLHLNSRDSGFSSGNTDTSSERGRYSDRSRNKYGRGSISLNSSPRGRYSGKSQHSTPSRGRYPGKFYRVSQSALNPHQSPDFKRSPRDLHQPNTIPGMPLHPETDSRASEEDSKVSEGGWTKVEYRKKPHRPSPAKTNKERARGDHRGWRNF

Series 1 — effect on: enzyme activity; action: inhibitor; tested at: 0.5 µM; relative to: control; quantity: remaining activity
Compound: Nc1nccc(-c2c(-c3ccc(F)cc3)ncn2C2CCNCC2)n1
SGK2 (Homo sapiens, UniProt Q9HBY8): 96.9%
MAP3K20 (Homo sapiens, UniProt Q9NYL2): 98%
JAK1 (Homo sapiens, UniProt P23458): 104%
CSNK1E (Homo sapiens, UniProt P49674): 2.39%
EPHA2 (Homo sapiens, UniProt P29317): 102%
PAK6 (Homo sapiens, UniProt Q9NQU5): 111%
EPHA6 (Homo sapiens, UniProt Q9UF33): 78%
RPS6KA3 (Homo sapiens, UniProt P51812): 92.2%
FLT1 (Homo sapiens, UniProt P17948): 89.3%
IGF1R (Homo sapiens, UniProt P08069): 104%
PRKCZ (Homo sapiens, UniProt Q05513): 106%
CLK2 (Homo sapiens, UniProt P49760): 99.7%
TEC (Homo sapiens, UniProt P42680): 110%
PRKCQ (Homo sapiens, UniProt Q04759): 107%
TYRO3 (Homo sapiens, UniProt Q06418): 96.9%
SRPK1 (Homo sapiens, UniProt Q96SB4): 103%
CLK1 (Homo sapiens, UniProt P49759): 98.2%
CAMK1 (Homo sapiens, UniProt Q14012): 107%
Cyclin-dependent kinase 2, with cyclin E (CDK2, Homo sapiens, UniProt P24941): 92.1%
CSNK1D (Homo sapiens, UniProt P48730): 1.25%
SIK2 (Homo sapiens, UniProt Q9H0K1): 64.7%
CAMKK1 (Homo sapiens, UniProt Q8N5S9): 103%
MUSK (Homo sapiens, UniProt O15146): 86.9%
PAK1 (Homo sapiens, UniProt Q13153): 97.4%

Series 2 — species: human; sample: microsomes or S9; tested at: 2 µM; time: 0.5 h; quantity: remaining compound
COc1cc(C(=O)N2CCCCCC2)c(N(C)S(C)(=O)=O)cc1OC: 69.9%
COc1cc2c(c(Br)c1OC)CN(c1cc(C(=O)O)ccc1C)C2=O: > 99%
CCc1cc(=O)[nH]c(-n2nc(C)cc2NC(=O)c2c(-c3ccccc3Cl)noc2C)n1: 75.3%
O=C(Cc1ccc(Cl)s1)NC(CO)c1c(F)cccc1F (stereo not shown): 35.7%
CCOP(=O)(Cc1ccc(-c2ccccc2OC)cn1)OCC: 72%
CN(C)CCCNC(=O)c1cc(S(=O)(=O)N(C)C)c(Cl)cc1Cl: > 99%
O=c1[nH]ncn2nc(-c3ccc(Cl)c(Cl)c3)cc12: > 99.9%
CC(C)CCC(C(N)=O)C1=NC(C)(C)Cc2ccccc21 (stereo not shown): 1.92%

Series 3 — tested at: 1 µM; quantity: remaining binding
SMILES: Nc1cnc(N2CCc3cc(S(=O)(=O)Nc4c(F)cc(Cl)cc4F)cc(N4CCCC4=O)c32)nc1
ANKK1 (Homo sapiens, UniProt Q8NFD2); cell-free assay, competition with immobilised ligand: 100%
CSF1R (Homo sapiens, UniProt P07333); cell-free assay, competition with immobilised ligand: 100%
Tyrosine-protein kinase ABL1, phosphorylated (ABL1, Homo sapiens, UniProt P00519, F317I); binding: 100%
PIP5K1A (Homo sapiens, UniProt Q99755); cell-free assay, competition with immobilised ligand: 100%
CDK7 (Homo sapiens, UniProt P50613); cell-free assay, competition with immobilised ligand: 100%
CDK11B (Homo sapiens, UniProt P21127); cell-free assay, competition with immobilised ligand: 100%
FLT3 (Homo sapiens, UniProt P36888, R834Q); cell-free assay, competition with immobilised ligand: 77%
EPHB3 (Homo sapiens, UniProt P54753); cell-free assay, competition with immobilised ligand: 100%
STK24 (Homo sapiens, UniProt Q9Y6E0); cell-free assay, competition with immobilised ligand: 100%
PIK3CA (Homo sapiens, UniProt P42336, E545A); cell-free assay, competition with immobilised ligand: 100%
MAP3K7 (Homo sapiens, UniProt O43318); cell-free assay, competition with immobilised ligand: 100%

Series 4 — cell line: HaCaT; tested at: 100 µM; time: 60 h; quantity: viability
COc1ccccc1OCC(O)CO (stereo not shown): 145%
CC(C)(C)c1cc(C(C)(C)C)c(NC(=O)c2c[nH]c3ccccc3c2=O)cc1O: 17.4%
CC1=C(C(=O)O)N2C(=O)[C@@H](NC(=O)[C@H](N)C3=CCC=CC3)[C@H]2SC1: 149%
O=C(O)C1=CO[C@@H](O[C@@H]2O[C@H](CO)[C@@H](O)[C@H](O)[C@H]2O)[C@@H]2C(CO)=CC[C@H]12: 136%
CCCc1cc(=O)[nH]c(=S)[nH]1: 144%
CCOC(=O)[C@H](CCc1ccccc1)N[C@@H](C)C(=O)N(CC(=O)O)C1Cc2ccccc2C1: 59.5%

Some of these lines once more (series 1):
MAP3K20 (Homo sapiens, UniProt Q9NYL2): 98%
JAK1 (Homo sapiens, UniProt P23458): 104%
CSNK1E (Homo sapiens, UniProt P49674): 2.39%
